Experimental data collected from several papers.
Numbers after ± are the reported error.
UniProt P29350, sequence (whole entry, looked up): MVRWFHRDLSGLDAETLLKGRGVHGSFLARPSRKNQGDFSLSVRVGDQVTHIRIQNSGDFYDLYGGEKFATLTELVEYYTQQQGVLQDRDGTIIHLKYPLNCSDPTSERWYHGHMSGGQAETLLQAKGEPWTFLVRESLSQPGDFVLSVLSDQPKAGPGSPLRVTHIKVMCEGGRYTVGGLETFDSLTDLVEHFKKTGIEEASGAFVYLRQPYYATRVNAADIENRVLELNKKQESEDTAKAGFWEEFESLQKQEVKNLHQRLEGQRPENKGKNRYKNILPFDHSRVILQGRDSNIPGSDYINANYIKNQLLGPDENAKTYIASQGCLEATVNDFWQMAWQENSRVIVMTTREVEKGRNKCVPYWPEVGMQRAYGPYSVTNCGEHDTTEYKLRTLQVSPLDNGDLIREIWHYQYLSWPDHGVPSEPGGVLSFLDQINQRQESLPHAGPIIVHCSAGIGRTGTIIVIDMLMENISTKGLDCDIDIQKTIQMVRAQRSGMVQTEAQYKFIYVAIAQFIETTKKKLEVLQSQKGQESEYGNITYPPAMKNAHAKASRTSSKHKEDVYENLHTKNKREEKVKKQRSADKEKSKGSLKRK
UniProt P51531, sequence (whole entry, unmodified, looked up): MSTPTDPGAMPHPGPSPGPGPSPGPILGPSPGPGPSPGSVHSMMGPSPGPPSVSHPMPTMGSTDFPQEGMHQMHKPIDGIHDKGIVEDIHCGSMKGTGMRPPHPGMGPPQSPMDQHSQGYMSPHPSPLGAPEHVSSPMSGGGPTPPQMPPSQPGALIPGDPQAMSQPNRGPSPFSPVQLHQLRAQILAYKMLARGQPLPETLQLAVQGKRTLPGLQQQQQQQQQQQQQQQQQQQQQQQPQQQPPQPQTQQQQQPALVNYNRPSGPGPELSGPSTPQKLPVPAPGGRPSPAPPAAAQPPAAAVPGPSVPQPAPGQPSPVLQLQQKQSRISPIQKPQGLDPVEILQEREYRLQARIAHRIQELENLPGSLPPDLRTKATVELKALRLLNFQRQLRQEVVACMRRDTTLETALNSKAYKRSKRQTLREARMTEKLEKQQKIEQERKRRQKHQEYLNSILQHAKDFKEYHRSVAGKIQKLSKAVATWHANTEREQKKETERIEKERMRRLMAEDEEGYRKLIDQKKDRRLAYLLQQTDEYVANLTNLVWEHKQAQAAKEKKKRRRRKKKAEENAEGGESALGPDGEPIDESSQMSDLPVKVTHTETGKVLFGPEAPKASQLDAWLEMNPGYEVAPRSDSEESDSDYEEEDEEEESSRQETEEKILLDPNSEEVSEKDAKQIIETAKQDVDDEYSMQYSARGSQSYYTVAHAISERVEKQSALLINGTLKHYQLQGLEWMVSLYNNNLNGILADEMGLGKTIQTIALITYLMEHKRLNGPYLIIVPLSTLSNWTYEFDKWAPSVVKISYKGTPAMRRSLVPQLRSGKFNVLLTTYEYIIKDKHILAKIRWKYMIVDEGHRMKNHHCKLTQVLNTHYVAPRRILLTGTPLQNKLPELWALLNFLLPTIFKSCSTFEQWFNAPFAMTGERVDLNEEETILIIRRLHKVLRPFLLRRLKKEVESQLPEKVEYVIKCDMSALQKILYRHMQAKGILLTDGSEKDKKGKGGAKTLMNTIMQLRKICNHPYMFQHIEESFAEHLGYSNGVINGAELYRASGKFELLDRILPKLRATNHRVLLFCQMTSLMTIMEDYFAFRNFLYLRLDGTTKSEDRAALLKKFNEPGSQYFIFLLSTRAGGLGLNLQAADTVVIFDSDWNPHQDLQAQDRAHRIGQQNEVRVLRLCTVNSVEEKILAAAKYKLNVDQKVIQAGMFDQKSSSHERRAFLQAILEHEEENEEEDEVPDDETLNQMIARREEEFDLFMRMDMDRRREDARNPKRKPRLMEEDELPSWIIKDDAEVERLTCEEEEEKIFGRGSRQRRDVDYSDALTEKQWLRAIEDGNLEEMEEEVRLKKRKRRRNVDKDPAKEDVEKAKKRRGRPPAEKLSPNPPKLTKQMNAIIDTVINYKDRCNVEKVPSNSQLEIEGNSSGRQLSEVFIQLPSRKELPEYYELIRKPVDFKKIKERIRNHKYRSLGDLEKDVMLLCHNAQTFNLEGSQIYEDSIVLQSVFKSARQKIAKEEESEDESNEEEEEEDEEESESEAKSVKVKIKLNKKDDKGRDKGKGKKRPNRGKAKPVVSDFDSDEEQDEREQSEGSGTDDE
UniProt Q16644, sequence (whole entry, looked up): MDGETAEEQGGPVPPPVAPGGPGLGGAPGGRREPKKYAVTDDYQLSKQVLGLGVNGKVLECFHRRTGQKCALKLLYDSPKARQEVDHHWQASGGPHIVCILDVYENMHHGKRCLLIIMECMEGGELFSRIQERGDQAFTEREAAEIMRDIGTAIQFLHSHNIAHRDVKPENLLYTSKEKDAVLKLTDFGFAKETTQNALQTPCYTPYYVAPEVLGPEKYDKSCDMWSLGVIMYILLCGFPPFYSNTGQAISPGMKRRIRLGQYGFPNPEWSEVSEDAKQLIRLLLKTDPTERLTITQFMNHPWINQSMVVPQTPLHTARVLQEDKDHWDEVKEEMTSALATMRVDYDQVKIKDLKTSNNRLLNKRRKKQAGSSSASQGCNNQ
UniProt P35354, sequence (whole entry, looked up): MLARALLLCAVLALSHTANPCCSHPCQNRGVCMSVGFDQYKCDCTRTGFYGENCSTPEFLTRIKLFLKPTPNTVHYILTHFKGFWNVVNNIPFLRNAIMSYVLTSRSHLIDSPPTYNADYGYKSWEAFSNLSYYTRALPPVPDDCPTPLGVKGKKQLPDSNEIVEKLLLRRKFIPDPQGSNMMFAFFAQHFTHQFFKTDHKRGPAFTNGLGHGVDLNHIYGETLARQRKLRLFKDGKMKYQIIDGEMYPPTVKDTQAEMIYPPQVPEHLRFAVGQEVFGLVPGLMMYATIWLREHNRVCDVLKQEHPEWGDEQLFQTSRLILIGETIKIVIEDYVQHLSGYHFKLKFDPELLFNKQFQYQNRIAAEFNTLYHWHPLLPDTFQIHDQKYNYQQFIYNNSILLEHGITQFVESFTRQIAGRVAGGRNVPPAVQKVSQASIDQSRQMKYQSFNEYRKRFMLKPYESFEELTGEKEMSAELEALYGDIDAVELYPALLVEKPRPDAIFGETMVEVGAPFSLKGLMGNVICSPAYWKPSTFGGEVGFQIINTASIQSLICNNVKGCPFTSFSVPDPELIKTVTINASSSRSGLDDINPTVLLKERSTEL
UniProt Q9UQQ2, sequence (whole entry, looked up): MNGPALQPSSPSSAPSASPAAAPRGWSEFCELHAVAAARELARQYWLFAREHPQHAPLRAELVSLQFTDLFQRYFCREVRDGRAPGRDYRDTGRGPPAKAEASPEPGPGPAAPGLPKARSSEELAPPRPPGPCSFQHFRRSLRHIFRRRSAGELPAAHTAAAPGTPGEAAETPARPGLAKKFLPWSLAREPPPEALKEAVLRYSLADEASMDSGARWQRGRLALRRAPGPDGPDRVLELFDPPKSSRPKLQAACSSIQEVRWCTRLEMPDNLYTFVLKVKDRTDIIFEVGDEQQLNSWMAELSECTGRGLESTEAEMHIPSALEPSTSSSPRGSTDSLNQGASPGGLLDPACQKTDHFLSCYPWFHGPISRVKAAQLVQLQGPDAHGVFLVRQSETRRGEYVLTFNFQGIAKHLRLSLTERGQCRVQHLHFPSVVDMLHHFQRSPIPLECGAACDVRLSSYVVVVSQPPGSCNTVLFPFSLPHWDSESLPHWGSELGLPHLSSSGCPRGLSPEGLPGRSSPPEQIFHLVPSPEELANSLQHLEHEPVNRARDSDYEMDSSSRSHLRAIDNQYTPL
UniProt Q8GME2, sequence (whole entry, looked up): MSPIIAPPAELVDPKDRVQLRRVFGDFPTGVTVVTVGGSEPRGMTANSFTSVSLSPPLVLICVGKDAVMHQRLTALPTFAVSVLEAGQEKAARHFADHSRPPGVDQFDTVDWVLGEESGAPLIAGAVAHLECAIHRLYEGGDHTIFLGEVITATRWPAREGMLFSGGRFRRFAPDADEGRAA
UniProt Q15464, sequence (whole entry, looked up): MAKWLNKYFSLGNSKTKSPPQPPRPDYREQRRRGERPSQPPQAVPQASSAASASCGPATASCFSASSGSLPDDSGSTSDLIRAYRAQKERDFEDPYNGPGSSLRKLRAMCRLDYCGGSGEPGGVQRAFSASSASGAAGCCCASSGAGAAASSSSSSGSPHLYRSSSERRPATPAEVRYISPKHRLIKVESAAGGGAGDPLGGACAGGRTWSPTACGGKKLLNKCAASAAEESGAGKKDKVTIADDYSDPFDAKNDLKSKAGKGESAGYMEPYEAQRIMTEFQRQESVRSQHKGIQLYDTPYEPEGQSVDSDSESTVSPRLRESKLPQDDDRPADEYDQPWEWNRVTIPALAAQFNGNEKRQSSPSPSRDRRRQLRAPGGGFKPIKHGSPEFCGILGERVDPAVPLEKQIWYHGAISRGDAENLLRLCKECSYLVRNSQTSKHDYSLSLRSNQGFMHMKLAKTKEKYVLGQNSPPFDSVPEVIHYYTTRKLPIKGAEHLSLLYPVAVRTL
UniProt Q96RI1, sequence (whole entry, looked up): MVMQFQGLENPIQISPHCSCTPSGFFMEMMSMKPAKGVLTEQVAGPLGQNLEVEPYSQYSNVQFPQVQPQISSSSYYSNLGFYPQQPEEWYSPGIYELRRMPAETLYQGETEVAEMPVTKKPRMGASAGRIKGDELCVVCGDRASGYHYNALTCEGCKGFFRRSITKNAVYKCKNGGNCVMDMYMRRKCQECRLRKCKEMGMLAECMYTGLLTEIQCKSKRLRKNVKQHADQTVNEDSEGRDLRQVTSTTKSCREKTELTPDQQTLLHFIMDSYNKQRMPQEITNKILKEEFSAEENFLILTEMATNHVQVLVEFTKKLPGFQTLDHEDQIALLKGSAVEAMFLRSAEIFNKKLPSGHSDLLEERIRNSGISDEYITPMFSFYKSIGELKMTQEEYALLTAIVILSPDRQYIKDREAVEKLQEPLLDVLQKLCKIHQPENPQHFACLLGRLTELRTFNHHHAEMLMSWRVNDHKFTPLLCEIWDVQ

The EC50 of CC[C@H](C)[C@H](NC(=O)[C@H](CO)NC(=O)[C@H](C)NC(=O)[C@H](Cc1ccc(OP(=O)(O)O)cc1)NC(=O)[C@H](CCC(=O)O)NC(=O)[C@@H](NC(=O)[C@H](Cc1c[nH]cn1)NC(=O)[C@H](CC(N)=O)NC(=O)[C@H](CC(N)=O)NC(=O)[C@@H]1CCCN1C(=O)[C@H](CCC(=O)O)NC(=O)[C@H](C)NC(=O)[C@H](C)NC(=O)[C@H](CCC(N)=O)NC(=O)[C@@H]1CCCN1C(=O)[C@H](C)NC(=O)[C@@H]1CCCN1C(=O)[C@H](CCCCN)NC(=O)[C@H](CCCCN)NC(=O)CNC(=O)[C@H](CCCCN)NC(=O)[C@@H]1CCCN1C(=O)[C@H](CC(C)C)NC(=O)[C@H](CC(N)=O)NC(=O)[C@H](CC(C)C)NC(=O)[C@H](CC(=O)O)NC(=O)[C@H](C)NC(=O)[C@H](Cc1ccc(OP(=O)(O)O)cc1)NC(=O)[C@@H](NC(=O)[C@@H](NC(=O)[C@@H](N)CC(=O)O)[C@@H](C)CC)[C@@H](C)O)[C@@H](C)O)C(=O)N[C@@H](CCC(N)=O)C(=O)N[C@H](C(=O)N[C@@H](CO)C(=O)O)[C@@H](C)O is reported as 216 ± 2 nM (PTPN11 (Homo sapiens, UniProt Q06124, E249R); enzyme activity, activator; pH 7.0, 0.2% DMSO, added: DiFMUP 100 µM, phosphopeptide).
For Cc1ncsc1-c1ccc(CNC(=O)[C@@H]2C[C@@H](O)CN2C(=O)[C@@H](NC(=O)C2(F)CC2)C(C)(C)C)c(OCCOc2ccc(CN3CCN(c4cc(-c5ccccc5O)nnc4N)CC3)cc2)c1, the DC50 was 6.5 nM (SMARCA2 (Homo sapiens, UniProt P51531); degrader, immunoblot; SMARCA4-mutant lung cancer cells; 96 h, median of twelve cell lines).
CC[C@H](C)[C@H](NC(=O)[C@H](Cc1ccc(OP(=O)(O)O)cc1)NC(=O)[C@H](CCC(=O)O)NC(=O)[C@H](Cc1c[nH]cn1)NC(=O)CNC(=O)[C@H](CC(=O)O)NC(=O)[C@H](CO)NC(=O)[C@H](CO)NC(=O)[C@@H](NC(=O)[C@H](CO)NC(=O)[C@H](CCC(=O)O)NC(=O)c1ccc2c(c1)C(=O)OC21c2ccc(N(C)C)cc2Oc2cc(N(C)C)ccc21)C(C)C)C(=O)N[C@@H](Cc1ccc(O)cc1)C(=O)N[C@H](C(=O)N[C@@H](CC(=O)O)C(=O)N1CCC[C@H]1C(=O)N[C@@H](CCSC)C(=O)N[C@@H](CCC(N)=O)C(=O)N[C@@H](CC(=O)O)C(=O)O)C(C)C gave a Kd of 404 nM (SH2 domain-containing adapter protein B, SH2 domain (SHB, Homo sapiens, UniProt Q15464); binding).
C[C@H]1CN(c2n[nH]c3nc(N[C@H]4CC[C@H](NS(=O)(=O)CCC(F)(F)F)CC4)ncc23)CCO1 gave an IC50 of at least 20000 nM (Very-long-chain enoyl-CoA reductase (Homo sapiens, UniProt Q9NZ01); biochemical).
CO[C@H]1C[C@H](O[C@@H]2/C(C)=C/C[C@@H]3C[C@@H](C[C@]4(CC[C@H](C)[C@@H](C5CCCCC5)O4)O3)OC(=O)[C@@H]3C=C(C)/C(=N/O)[C@H]4OC/C(=C\C=C\[C@@H]2C)[C@]43O)O[C@@H](C)[C@@H]1O gave an IC50 of 3330 ± 730 nM (Bile acid receptor (NR1H4, Homo sapiens, UniProt Q96RI1); receptor activity, inhibitor; cells).
CO[C@H]1C[C@@H]2CC[C@@H](C)[C@@](O)(O2)C(=O)C(=O)N2CCCC[C@H]2C(=O)O[C@H]([C@H](C)C[C@@H]2CC[C@@H](OC(=O)NCCOCCOCCOCCOCCOCCOCCOCCOCCC(=O)N3CCc4cc(Cn5nc(-c6ccc7oc(N)nc7c6)c6c(N)ncnc65)ccc4C3)[C@H](OC)C2)C[C@@H](O)[C@H](C)/C=C(\C)[C@@H](O)[C@@H](OC)C(=O)[C@H](C)C[C@H](C)/C=C/C=C/C=C/1C: “incidence of Constipation TEAE” 0% (patients with advanced solid tumours; intravenous, dose not given, grade ≥3).
COc1ccc(N2C(=O)N(c3c(C)cccc3Cl)Cc3cnc(Nc4ccc(C5CCN(C)CC5)cc4OC)nc32)nc1 has an inhibition of 6% (MAPKAPK3 (Homo sapiens, UniProt Q16644); kinase activity; 0.5 µM).
C[C@]1(CO)Cc2ncn(-c3ccc(C#N)c(Cl)c3)c2C(=O)O1: “serum potassium elevation incidence” 28.9% (measured: potassium, serum, ≥5.0 mmol/L; human; European multiple ascending dose).
The IC50 of COc1cc(Nc2ncc(F)c(Nc3ccc4c(n3)NC(=O)C(C)(C)O4)n2)cc(OC)c1OC is reported as over 10000 nM (PTGS2 (Homo sapiens, UniProt P35354)).
With NC(=O)c1ccc[n+]([C@@H]2O[C@H](COP(=O)(O)OP(=O)(O)OC[C@H]3O[C@@H](n4cnc5c(N)ncnc54)[C@H](OP(=O)(O)O)[C@@H]3O)[C@@H](O)[C@H]2O)c1 the Ki was 42000 nM (chnB (Rhodococcus sp. HI-31, UniProt C0STX7, L145N)).
For COc1cc2c(Oc3ccc4[nH]c(C)cc4c3F)ccnc2cc1OCC1(N)CC1, “grade 3 Epistaxis” read 0% (paediatric recurrent refractory sarcoma; 8 mg).
CSCC[C@H](NC(=O)CNC(=O)[C@H](Cc1ccccc1)NC(=O)[C@H](CC(=O)O)NC(=O)CNC(=O)c1ccc2c(c1)C(=O)OC21c2ccc(N(C)C)cc2Oc2cc(N(C)C)ccc21)C(=O)N[C@@H](CO)C(=O)N[C@@H](CCCNC(=N)N)C(=O)N[C@@H](CC(=O)O)C(=O)N[C@H](C(=O)N[C@@H](Cc1ccc(OP(=O)(O)O)cc1)C(=O)N[C@@H](CO)C(=O)N[C@H](C(=O)N[C@@H](CC(=O)O)C(=O)N[C@@H](Cc1ccc(O)cc1)C(=O)N[C@@H](Cc1ccc(O)cc1)C(=O)N[C@@H](CCCNC(=N)N)C(=O)N[C@H](C(=O)N[C@@H](CC(=O)O)C(=O)O)C(C)C)[C@@H](C)O)C(C)C gave a Kd of 786 nM (SH2B3, SH2 domain (Homo sapiens, UniProt Q9UQQ2); binding).
CC[C@H](C)[C@@H]1NC(=O)[C@@H]2CCCN2C(=O)[C@H](CC(C)C)NC(=O)[C@H](CC(C)C)NC(=O)CNC(=O)[C@@H](NC(=O)[C@@H](NC(=O)[C@H](CC(=O)O)NC(=O)CNC(=O)[C@@H](NC(=O)[C@H](C)NC(=O)CNC(=O)[C@H](CCCCN)NC(=O)[C@H](CC(C)C)NC(=O)[C@H](CC(C)C)NC(=O)[C@H](CCCCN)NC(=O)CNC(=O)[C@@H](NC(=O)[C@@H](N)CC(C)C)C(C)C)C(C)C)C(C)C)CSSC[C@@H](C(=O)O)NC1=O — result for “log2 fold change”: -1.11 (RNA-seq, measured: Tap2; mouse, traumatic brain injury model, frontal cortex and hippocampus; dose not given; relative to: TBI alone).
The Kd of CC(C)C[C@H](NC(=O)[C@@H](NC(=O)[C@H](CO)NC(=O)[C@H](CO)NC(=O)[C@@H](NC(=O)[C@H](CC(=O)O)NC(=O)[C@H](CC(C)C)NC(=O)[C@@H]1CCCN1C(=O)[C@H](CO)NC(=O)c1ccc2c(c1)C(=O)OC21c2ccc(N(C)C)cc2Oc2cc(N(C)C)ccc21)[C@@H](C)O)C(C)C)C(=O)N[C@@H](Cc1ccc(OP(=O)(O)O)cc1)C(=O)N[C@H](C(=O)N[C@@H](C)C(=O)N[C@H](C(=O)N[C@@H](CCC(N)=O)C(=O)N1CCC[C@H]1C(=O)N[C@@H](CC(N)=O)C(=O)N[C@@H](CCC(=O)O)C(=O)N[C@@H](CC(=O)O)C(=O)O)C(C)C)[C@@H](C)O is reported as 1090 nM (Tyrosine-protein phosphatase non-receptor type 6, SH2 domains (PTPN6, Homo sapiens, UniProt P29350); binding).
NC(=O)C1=CN([C@@H]2O[C@H](COP(=O)(O)OP(=O)(O)OC[C@H]3O[C@@H](n4cnc5c(N)ncnc54)[C@H](O)[C@@H]3O)[C@@H](O)[C@H]2O)C=CC1 gave a Km of 53 ± 8 µM (NADH-dependent FAD reductase (sgcE6, Streptomyces globisporus, UniProt Q8GME2); substrate).

For quick reference, copied from above:
For Cc1ncsc1-c1ccc(CNC(=O)[C@@H]2C[C@@H](O)CN2C(=O)[C@@H](NC(=O)C2(F)CC2)C(C)(C)C)c(OCCOc2ccc(CN3CCN(c4cc(-c5ccccc5O)nnc4N)CC3)cc2)c1, the DC50 was 6.5 nM (SMARCA2 (Homo sapiens, UniProt P51531); degrader, immunoblot; SMARCA4-mutant lung cancer cells; 96 h, median of twelve cell lines).
CC[C@H](C)[C@H](NC(=O)[C@H](Cc1ccc(OP(=O)(O)O)cc1)NC(=O)[C@H](CCC(=O)O)NC(=O)[C@H](Cc1c[nH]cn1)NC(=O)CNC(=O)[C@H](CC(=O)O)NC(=O)[C@H](CO)NC(=O)[C@H](CO)NC(=O)[C@@H](NC(=O)[C@H](CO)NC(=O)[C@H](CCC(=O)O)NC(=O)c1ccc2c(c1)C(=O)OC21c2ccc(N(C)C)cc2Oc2cc(N(C)C)ccc21)C(C)C)C(=O)N[C@@H](Cc1ccc(O)cc1)C(=O)N[C@H](C(=O)N[C@@H](CC(=O)O)C(=O)N1CCC[C@H]1C(=O)N[C@@H](CCSC)C(=O)N[C@@H](CCC(N)=O)C(=O)N[C@@H](CC(=O)O)C(=O)O)C(C)C gave a Kd of 404 nM (SH2 domain-containing adapter protein B, SH2 domain (SHB, Homo sapiens, UniProt Q15464); binding).
